Published values collected from several papers.
Every numbered part comes from another study and shows a few of its results, in no order. Substitutions count along the parent as printed.
Sequence of UniProt Q9Y243 (whole entry, looked up): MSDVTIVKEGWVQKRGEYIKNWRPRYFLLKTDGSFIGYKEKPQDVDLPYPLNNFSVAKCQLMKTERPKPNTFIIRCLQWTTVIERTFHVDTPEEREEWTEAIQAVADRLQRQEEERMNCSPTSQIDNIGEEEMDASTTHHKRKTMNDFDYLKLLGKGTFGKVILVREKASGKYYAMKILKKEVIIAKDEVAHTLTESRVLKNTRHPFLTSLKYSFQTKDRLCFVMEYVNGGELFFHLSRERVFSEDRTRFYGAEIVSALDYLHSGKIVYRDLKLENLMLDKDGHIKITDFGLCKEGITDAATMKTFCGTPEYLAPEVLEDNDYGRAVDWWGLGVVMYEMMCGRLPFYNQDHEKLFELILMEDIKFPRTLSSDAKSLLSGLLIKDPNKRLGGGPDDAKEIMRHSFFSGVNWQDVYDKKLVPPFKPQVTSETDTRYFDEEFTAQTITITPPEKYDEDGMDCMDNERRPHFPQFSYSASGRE
Sequence of UniProt Q15418 (whole entry, looked up): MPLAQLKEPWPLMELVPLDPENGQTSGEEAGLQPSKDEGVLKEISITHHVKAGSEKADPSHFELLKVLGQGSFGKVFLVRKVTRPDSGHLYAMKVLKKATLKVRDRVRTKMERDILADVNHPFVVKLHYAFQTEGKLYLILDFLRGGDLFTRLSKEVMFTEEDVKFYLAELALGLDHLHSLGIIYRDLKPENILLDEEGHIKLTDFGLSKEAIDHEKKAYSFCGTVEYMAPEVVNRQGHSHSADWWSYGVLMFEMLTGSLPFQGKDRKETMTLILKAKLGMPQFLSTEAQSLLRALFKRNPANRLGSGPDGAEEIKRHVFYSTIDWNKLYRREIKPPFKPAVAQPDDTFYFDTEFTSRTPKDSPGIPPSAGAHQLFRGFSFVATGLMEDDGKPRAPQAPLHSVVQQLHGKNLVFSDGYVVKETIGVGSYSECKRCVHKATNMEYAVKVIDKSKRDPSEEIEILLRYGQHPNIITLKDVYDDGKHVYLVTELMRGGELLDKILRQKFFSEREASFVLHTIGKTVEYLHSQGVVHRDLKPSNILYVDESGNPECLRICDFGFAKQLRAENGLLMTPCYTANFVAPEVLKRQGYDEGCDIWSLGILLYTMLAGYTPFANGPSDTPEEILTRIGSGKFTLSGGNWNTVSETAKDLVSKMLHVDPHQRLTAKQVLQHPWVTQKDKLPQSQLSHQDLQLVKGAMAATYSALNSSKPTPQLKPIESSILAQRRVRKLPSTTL
Sequence of UniProt Q9P1W9 (whole entry, looked up): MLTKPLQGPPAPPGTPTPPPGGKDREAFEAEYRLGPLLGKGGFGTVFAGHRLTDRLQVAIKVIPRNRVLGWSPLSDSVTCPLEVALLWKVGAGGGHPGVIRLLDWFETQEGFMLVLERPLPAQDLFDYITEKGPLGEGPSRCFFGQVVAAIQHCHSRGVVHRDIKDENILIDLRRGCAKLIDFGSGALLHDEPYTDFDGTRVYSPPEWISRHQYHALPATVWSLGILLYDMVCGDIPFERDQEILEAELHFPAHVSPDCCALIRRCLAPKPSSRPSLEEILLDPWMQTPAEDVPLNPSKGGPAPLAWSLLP

Block 1
Target: Prothrombin, mature alpha-thrombin (F2, Homo sapiens, UniProt P00734)
Technique: aptamer microarray, sandwich
Molecule type: DNA with 2'F-ANA
Medium: in vitro
Concentration: 200 nM
Notes: whole 15-mer aptamer, many near background
Together with: Cy3 exosite-II aptamer, 400 nM
Direction: higher = stronger binding
Sequence: GGTTGGTGTGGTTGG
Modification | mean fluorescence intensity [a.u.]
2'F-ANA at 1 2 7 8 10 12 13 14 15 | 50.8
2'F-ANA at 4 6 7 10 11 12 | 103
2'F-ANA at 3 7 11 12 15 | 1290
2'F-ANA at 1 2 3 5 7 9 12 13 14 | 48.5
2'F-ANA at 2 6 7 8 11 12 13 14 15 | 150
2'F-ANA at 2 5 8 9 10 11 12 14 | 73.4
2'F-ANA at 1 3 6 7 12 14 15 | 106
2'F-ANA at 2 4 5 8 10 11 12 15 | 51.1

Block 2
Target: Tyrosine-protein kinase Fgr (FGR, Homo sapiens, UniProt P09769)
Read-out: enzyme activity
Action: inhibitor
Concentration: 0.5 µM
Baseline: control
SMILES | remaining activity [%]
c1ccc(-c2[nH]ncc2-c2ccnc3ccccc23)nc1 | 91.9
CN([C@@H](Cc1ccc(OS(=O)(=O)c2cccc3cnccc23)cc1)C(=O)N1CCN(c2ccccc2)CC1)S(=O)(=O)c1cccc2cnccc12 | 99.5
CCOc1nc(NC(=O)Cc2cc(OC)ccc2OC)cc(N)c1C#N | 93.6
Cn1nc2c3c(cccc31)C(=O)c1ccccc1-2 | 93.4
Cc1cc2ncc(-c3ccccc3)nc2cc1C | 99.1
COc1cc2ncnc(Nc3cccc(Cl)c3)c2cc1OC | 75.3
c1ccc(-c2cnc(Nc3ccc(OCCN4CCCC4)cc3)s2)cc1 | 65.7
Ic1cccc(CSc2nnc(-c3ccncc3)o2)c1 | 90.9
CCN(CC)CCNC(=O)c1c(C)[nH]c(/C=C2\C(=O)Nc3ccc(Cl)cc32)c1C | 11.5
COc1cc2ncnc(Nc3ccc(O)c(Br)c3)c2cc1OC | 57.8
N#Cc1c(NC(=O)c2cccc3ccccc23)sc2c1CCCC2 | 98.1
O=C(NC(NC(=S)Nc1ccc(F)c([N+](=O)[O-])c1)C(Cl)(Cl)Cl)C(c1ccccc1)c1ccccc1 (stereo not shown) | 84.5

Block 3
SMILES: O=S(=O)(NC1CCC(c2cc(F)ccc2F)(S(=O)(=O)c2ccc(Cl)cc2)CC1)C(F)(F)F (stereo not shown)
Read-out: cell-free assay
Technique: competition with immobilised ligand
Concentration: 1 µM
target | remaining binding [%]
Serine/threonine-protein kinase pim-2 (PIM2, Homo sapiens, UniProt Q9P1W9) | 100
RAC-gamma serine/threonine-protein kinase (AKT3, Homo sapiens, UniProt Q9Y243) | 100
Ribosomal protein S6 kinase alpha-1, N-terminal kinase domain (RPS6KA1, Homo sapiens, UniProt Q15418) | 90

Block 4
Target: FOS, bZIP domain (human)
Technique: DHFR protein complementation
Medium: yeast
Notes: single substitutions, most at no-binding floor
Baseline: wild-type JUN-FOS pair
Direction: higher = stronger binding
Starting sequence: JUN, bZIP domain (human); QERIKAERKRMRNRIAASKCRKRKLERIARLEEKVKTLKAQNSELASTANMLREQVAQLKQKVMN; partner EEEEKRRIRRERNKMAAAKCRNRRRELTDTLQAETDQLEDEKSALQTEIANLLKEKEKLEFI
Variant | binding fitness
E33T | -0.232 natural log
R30M | 0.0636 natural log
L59P | -1.16 natural log
S43Q | 0.0609 natural log
Q55K | -0.0601 natural log
A40Q | 0.0762 natural log
I28Q | -0.0523 natural log
N42H | -0.765 natural log

A few entries again (block 1):
Modification | mean fluorescence intensity [a.u.]
2'F-ANA at 2 5 8 9 10 11 12 14 | 73.4
2'F-ANA at 3 7 11 12 15 | 1290
2'F-ANA at 1 2 7 8 10 12 13 14 15 | 50.8
2'F-ANA at 1 3 6 7 12 14 15 | 106
